# Published values from different studies.
# Protocols differ between the studies behind these lines. ± marks the error that the study gave.
# Aryl hydrocarbon receptor: Aryl hydrocarbon receptor (Danio rerio, UniProt Q9YGV3)
# PFF0160c E182D: Dihydroorotate dehydrogenase (quinone), mitochondrial (PFF0160c, Plasmodium falciparum, UniProt Q08210, E182D)
# ACHE: Acetylcholinesterase (ACHE, Homo sapiens, UniProt P22303)
# Chain of UniProt Q007T0 (whole entry, looked up): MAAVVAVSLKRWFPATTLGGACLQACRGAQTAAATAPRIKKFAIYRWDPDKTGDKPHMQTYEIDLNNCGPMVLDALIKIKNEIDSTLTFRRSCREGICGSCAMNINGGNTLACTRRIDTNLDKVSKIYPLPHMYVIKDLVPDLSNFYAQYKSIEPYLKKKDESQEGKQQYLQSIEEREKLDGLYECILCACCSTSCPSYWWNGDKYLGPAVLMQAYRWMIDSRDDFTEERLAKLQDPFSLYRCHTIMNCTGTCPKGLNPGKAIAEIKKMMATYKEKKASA
# Chain of UniProt D0VWV4 (whole entry, looked up): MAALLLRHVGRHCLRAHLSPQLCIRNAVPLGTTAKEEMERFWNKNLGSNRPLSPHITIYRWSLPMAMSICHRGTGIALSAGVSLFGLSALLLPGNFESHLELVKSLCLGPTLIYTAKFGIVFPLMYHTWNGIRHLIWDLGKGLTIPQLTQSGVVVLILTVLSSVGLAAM
# Chain of UniProt A5GZW8 (whole entry, looked up): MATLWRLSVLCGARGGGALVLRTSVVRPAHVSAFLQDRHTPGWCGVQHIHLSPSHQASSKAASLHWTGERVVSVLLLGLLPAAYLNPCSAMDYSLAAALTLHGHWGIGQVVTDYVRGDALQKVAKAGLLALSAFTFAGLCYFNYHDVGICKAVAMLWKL
# Chain of UniProt P22303 (whole entry, looked up): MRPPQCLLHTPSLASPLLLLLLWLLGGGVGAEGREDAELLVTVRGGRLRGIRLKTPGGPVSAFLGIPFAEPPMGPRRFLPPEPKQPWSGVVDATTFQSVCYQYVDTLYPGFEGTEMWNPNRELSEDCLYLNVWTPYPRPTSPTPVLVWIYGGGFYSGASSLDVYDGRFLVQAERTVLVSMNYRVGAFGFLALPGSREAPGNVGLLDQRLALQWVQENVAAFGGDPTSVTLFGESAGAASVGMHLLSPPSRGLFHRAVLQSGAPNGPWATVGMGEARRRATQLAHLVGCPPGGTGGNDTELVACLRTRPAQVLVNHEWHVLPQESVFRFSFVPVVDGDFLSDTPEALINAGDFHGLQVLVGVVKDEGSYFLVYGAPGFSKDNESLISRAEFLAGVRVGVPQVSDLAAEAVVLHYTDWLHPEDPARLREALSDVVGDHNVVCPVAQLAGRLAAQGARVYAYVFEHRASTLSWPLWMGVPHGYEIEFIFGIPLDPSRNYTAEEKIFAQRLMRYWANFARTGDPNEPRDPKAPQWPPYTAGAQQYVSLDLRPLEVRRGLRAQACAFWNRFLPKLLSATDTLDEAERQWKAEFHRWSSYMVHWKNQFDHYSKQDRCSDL
# Chain of UniProt Q62351 (whole entry, looked up): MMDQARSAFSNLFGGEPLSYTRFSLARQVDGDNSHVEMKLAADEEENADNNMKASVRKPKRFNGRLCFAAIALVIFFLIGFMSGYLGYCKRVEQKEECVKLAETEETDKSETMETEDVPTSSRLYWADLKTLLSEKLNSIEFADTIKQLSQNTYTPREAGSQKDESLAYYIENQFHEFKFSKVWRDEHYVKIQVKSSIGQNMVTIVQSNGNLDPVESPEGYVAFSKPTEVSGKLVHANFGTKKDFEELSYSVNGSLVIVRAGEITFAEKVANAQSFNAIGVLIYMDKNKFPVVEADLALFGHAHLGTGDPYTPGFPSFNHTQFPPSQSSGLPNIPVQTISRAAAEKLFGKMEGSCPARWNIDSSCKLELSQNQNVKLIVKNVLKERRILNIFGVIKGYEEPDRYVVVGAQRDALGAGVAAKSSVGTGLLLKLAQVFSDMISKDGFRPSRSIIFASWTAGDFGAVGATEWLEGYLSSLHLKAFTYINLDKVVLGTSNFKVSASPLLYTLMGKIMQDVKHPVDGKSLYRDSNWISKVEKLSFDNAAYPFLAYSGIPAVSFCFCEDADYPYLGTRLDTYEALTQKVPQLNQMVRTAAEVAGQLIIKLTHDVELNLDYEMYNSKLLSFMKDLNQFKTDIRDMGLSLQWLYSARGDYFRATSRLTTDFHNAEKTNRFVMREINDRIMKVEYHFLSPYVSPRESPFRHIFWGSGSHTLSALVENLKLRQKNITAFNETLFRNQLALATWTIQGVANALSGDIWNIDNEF
# Chain of UniProt P49760 (whole entry, looked up): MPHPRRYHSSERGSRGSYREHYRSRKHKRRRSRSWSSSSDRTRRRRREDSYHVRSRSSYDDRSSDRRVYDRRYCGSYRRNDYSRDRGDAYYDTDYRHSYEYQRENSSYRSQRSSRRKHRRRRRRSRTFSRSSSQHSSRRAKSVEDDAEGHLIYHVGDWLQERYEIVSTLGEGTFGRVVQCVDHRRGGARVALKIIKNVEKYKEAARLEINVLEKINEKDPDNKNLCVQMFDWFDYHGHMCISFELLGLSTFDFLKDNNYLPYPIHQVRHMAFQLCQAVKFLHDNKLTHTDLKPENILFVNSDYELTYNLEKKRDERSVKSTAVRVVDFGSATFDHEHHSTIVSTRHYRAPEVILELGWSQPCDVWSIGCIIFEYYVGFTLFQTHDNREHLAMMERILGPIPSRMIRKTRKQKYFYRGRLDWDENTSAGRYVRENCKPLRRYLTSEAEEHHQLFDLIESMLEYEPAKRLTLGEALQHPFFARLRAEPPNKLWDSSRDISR
# Chain of UniProt P31645 (whole entry, looked up): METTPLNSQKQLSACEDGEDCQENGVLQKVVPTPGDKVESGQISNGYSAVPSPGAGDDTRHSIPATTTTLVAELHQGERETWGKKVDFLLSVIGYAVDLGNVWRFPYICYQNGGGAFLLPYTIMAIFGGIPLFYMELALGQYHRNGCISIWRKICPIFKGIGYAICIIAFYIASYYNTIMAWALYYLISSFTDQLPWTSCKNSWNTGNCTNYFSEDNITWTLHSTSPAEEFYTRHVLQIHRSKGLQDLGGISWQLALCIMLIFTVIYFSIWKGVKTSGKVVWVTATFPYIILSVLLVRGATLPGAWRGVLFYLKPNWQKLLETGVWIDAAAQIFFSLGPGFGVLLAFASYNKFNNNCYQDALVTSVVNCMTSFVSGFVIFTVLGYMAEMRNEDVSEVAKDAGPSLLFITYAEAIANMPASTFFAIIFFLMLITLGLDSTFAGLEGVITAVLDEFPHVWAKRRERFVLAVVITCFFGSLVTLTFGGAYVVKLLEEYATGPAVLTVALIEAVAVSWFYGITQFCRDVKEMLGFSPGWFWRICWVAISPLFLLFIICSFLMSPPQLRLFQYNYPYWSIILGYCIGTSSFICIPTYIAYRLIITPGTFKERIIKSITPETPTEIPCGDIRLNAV
# Chain of UniProt O00155 (whole entry, looked up): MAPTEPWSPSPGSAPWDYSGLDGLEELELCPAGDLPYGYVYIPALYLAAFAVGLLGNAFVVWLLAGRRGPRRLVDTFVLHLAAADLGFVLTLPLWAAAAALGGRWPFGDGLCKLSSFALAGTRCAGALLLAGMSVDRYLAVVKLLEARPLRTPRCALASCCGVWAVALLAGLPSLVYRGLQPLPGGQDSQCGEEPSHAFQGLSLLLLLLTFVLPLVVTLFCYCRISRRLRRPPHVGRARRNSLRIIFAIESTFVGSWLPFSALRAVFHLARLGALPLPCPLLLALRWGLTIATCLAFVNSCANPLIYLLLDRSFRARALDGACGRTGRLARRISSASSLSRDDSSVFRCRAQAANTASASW
# Chain of UniProt P02716 (whole entry, looked up): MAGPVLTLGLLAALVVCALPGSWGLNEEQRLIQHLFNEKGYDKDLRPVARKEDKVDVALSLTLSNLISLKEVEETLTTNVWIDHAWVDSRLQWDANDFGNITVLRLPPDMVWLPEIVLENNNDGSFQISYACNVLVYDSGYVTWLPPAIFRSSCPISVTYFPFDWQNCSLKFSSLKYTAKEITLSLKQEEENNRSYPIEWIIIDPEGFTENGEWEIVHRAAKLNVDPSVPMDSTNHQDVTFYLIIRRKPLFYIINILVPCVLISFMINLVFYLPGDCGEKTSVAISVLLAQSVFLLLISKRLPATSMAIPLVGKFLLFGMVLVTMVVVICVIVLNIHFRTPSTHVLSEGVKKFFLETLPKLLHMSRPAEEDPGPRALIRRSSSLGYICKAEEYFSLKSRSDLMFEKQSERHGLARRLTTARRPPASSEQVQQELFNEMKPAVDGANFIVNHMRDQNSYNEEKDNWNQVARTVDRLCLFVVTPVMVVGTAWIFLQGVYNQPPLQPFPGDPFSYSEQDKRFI
# Chain of UniProt O43293 (whole entry, looked up): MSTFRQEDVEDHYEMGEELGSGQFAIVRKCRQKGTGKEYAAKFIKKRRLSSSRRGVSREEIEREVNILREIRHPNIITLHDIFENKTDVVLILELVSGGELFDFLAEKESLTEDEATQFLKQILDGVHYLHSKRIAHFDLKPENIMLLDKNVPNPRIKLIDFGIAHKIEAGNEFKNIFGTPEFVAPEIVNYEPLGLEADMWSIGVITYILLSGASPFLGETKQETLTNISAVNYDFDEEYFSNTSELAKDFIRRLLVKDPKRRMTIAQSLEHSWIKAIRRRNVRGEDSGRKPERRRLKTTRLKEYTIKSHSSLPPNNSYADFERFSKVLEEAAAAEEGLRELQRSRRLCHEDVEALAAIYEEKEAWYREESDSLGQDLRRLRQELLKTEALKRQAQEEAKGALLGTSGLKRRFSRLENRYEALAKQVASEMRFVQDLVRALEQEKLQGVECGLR
# Chain of UniProt Q91XE4 (whole entry, looked up): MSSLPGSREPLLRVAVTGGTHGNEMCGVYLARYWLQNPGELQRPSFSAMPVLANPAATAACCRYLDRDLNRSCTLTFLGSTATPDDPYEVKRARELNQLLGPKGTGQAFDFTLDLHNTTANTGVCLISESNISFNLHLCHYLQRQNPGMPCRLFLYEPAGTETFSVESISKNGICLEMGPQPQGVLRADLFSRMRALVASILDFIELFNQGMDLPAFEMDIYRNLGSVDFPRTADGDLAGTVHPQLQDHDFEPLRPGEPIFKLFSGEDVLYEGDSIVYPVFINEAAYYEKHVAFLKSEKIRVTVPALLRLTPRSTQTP
Structure (SMILES),target,assay,system,setting,how to read,quantity,result
CC(=O)N[C@@H](CSCCC=O)C(=O)O,"N-acyl-aromatic-L-amino acid amidohydrolase (carboxylate-forming) (Acy3, Mus musculus, UniProt Q91XE4)","substrate, fluorescamine",,without Co2+,,kcat,0.4 s⁻¹
COc1cc(N)c(Cl)cc1C(=O)NC1CN2CCC1CC2 (stereo not drawn),"Probable G-protein coupled receptor 25 (GPR25, Homo sapiens, UniProt O00155)","β-arrestin recruitment, TANGO luminescence, refers to: GPR25",,concentration not given,reference: basal luminescence,log2 fold change,0.057
O=C(O)Cc1c[nH]cn1,"SLC6A6 (Homo sapiens, UniProt P31641, Y138A)","binding, microscale thermophoresis",,"250 µM, room temperature, with: 50 nM labelled protein",higher = more binding,normalised MST signal,0.674
Cc1nn(C)cc1-c1nc2c(N3CCN(Cc4ccc(Cl)cc4)CC3)c(Cl)cnc2[nH]1,"PKN2 (Homo sapiens, UniProt Q16513)",KINOMEscan,,1 µM,reference: DMSO control,remaining binding,33%
OC1Cc2ccccc2CC1N1CCC2(C=Cc3ccc(F)cc32)CC1 (racemic),"Vesicular acetylcholine transporter (Rattus norvegicus, UniProt Q62666)",,,,reference: Ki sigma1 over Ki VAChT,selectivity ratio,0.7
COc1ccc2c3c([nH]c2c1)[C@H](CC(C)C)N1C(=O)[C@H](CCC(=O)OC(C)(C)C)NC(=O)[C@@H]1C3,"UGT1A1 (Homo sapiens, UniProt P22309)","glucuronidation, inhibitor",cell lysate,"5 µM, with: genistein",,genistein glucuronide formation,decreased
c1ccc2c3c(ccc2c1)-c1cccc2cccc-3c12,Aryl hydrocarbon receptor,"reporter gene, agonist, luciferase reporter",ZF-4,3333.33 µM,reference: vehicle control,fold change,17.2
CN1CCN(c2cc(-c3ccncc3)c(-c3ccc4ccccc4c3)nn2)CC1,"CCR6 (Homo sapiens, UniProt P51684)","agonist, FLIPR",,12.5 µM,,activation,3%
NC(=O)c1ccc[n+]([C@@H]2O[C@H](COP(=O)(O)OP(=O)(O)OC[C@H]3O[C@@H](n4cnc5c(N)ncnc54)[C@H](O)[C@@H]3O)[C@@H](O)[C@H]2O)c1,ALDH-137,substrate,,,,Km,28 ± 6 µM
CC[C@@H](C)[C@@H](NC(=O)[C@@H](Cc1ccc(O)cc1)NC(=O)[C@H]1CCCN1C(=O)[C@@H](CCCNC(=N)N)NC(=O)[C@H](N)Cc1c[nH]cn1)C(=O)N[C@H](C)C(=O)N[C@H](Cc1c[nH]cn1)C(=O)N[C@H](CCCNC(=N)N)C(=O)N[C@H](CCCCNC(=O)c1cccc(S(=O)(=O)F)c1)C(=O)N[C@H](Cc1ccc(O)cc1)C(=O)N[C@H](CO)C(=O)N[C@H](Cc1ccccc1)C(N)=O,"Transferrin receptor protein 1 (Tfrc, Mus musculus, UniProt Q62351)",flow cytometry,RAW264.7,"2 h, pH 7.4, unit not given",reference: 0 h,surface expression,1
Cc1ncsc1-c1ccc(CNC(=O)[C@@H]2C[C@@H](O)CN2C(=O)[C@@H](NC(=O)C2(F)CC2)C(C)(C)C)c(OCCOc2ccc(CN3CCN(c4cc(-c5ccccc5O)nnc4N)CC3)cc2)c1,"SMARCA2 (Homo sapiens, UniProt P51531)","degrader, immunoblot",SMARCA4-mutant lung cancer cells,"96 h, median of twelve cell lines",,Dmax,96%
C[C@@H](NC(=O)c1ccc(C#Cc2cccc(F)c2)cn1)C(C)(C)O,"Grm5 (Rattus norvegicus, UniProt P31424)","calcium response, positive allosteric modulator",HEK293,with: glutamate,,fold shift of glutamate EC50,6.6 fold
O=C(Nc1cccc(CN2CCN(C(=O)c3cccc(Cl)c3)CC2)c1)c1cccs1.O=C(O)C(F)(F)F,PFF0160c E182D,"enzyme activity, DCIP colorimetric",,,reference: E182D mutant over wild type,IC50 ratio,4
COc1cc2c3cc1Oc1cc(ccc1O)C[C@@H]1c4c(cc(OC)c(O)c4Oc4ccc(cc4)C[C@@H]3N(C)CC2)CC[N+]1(C)C,"Chrnd/Chrna1/Chrne (Mus musculus, UniProt P02716+P04756+P20782)",,mouse diaphragm,"0.1 µM, AChE intact",reference: control,response amplitude,64%
O=C(Nc1cnccc1Cl)N1CCN(Cc2ccc3c(c2)OC(F)(F)O3)CC1,"SLC6A4 (Homo sapiens, UniProt P31645)","radioligand binding, inhibitor",,"50 µM, human, with: [3H]paroxetine",,inhibition,8%
CC[C@H](CO)Nc1nc(NCc2ccc(-c3ccccn3)cc2)c2ncn(C(C)C)c2n1,"CLK2 (Homo sapiens, UniProt P49760)",KINOMEscan competition binding,,"10 µM, primary screen",direction not given,binding score,4.8
Clc1ccc(Nc2nc3ccccc3c3nc(C4CCCCC4)[nH]c23)cc1Cl,ACHE,,biochemical,concentration not given,,activity class,inactive
C[C@H]1CN(c2n[nH]c3nc(N[C@H]4CC[C@H](NS(=O)(=O)CCC(F)(F)F)CC4)ncc23)CCO1,"DAPK3 (Homo sapiens, UniProt O43293)","inhibitor, Kinobeads competition profiling",,20 µM,reference: vehicle,relative abundance,1.11
Nc1ccn([C@H]2C[C@H](O)[C@@H](COP(=O)(O)OP(=O)(O)OP(=O)(O)O)O2)c(=O)n1,"DNA polymerase I, Klenow fragment (polA, Escherichia coli, UniProt P00582, C907S/D424A/L744C)","substrate, single-turnover chemical quench",,with: dNTP,,kpol,30 s⁻¹
CC(=O)NC[C@H]1[C@H](O)[C@H](O)[C@@H]2[C@H](O)C[C@@H](CO)N21,Spodoptera litura β-N-acetylglucosaminidase,,crude enzyme,"0.00313 µM, run 1, with: p-nitrophenyl GlcNAc",,inhibition,22.3%
CC(=O)[C@]1(O)Cc2c(O)c3c(c(O)c2[C@@H](O[C@H]2C[C@H](N)[C@H](O)[C@H](C)O2)C1)C(=O)c1ccccc1C3=O,"Beta-lactamase TEM (bla, Escherichia coli, UniProt P62593)",inhibitor,,,,Hill coefficient,1.4
Oc1ccc2ccc3cccc4ccc1c2c34,Aryl hydrocarbon receptor,"reporter gene, agonist, luciferase reporter",ZF-4,13.72 µM,reference: vehicle control,fold change,1.21
COc1ccc(N2C(=O)N(c3c(C)cccc3Cl)Cc3cnc(Nc4ccc(C5CCN(C)CC5)cc4OC)nc32)nc1,"DYRK4 (Homo sapiens, UniProt Q9NR20)",kinase activity,,0.5 µM,,inhibition,3.35%
CC(C)(C)NCC(O)COc1ccccc1OCC1CCCO1 (stereo not drawn),ACHE,,biochemical,concentration not given,,activity class,inactive
CC[C@H](C)[C@H](NC(=O)[C@H](CCC(N)=O)NC(=O)[C@@H](NC(=O)[C@@H]1CCCN1C(=O)[C@@H](NC(=O)[C@H](CO)NC(=O)[C@H](Cc1ccccc1)NC(=O)[C@@H]1CCCN1C(=O)[C@H](CCC(N)=O)NC(=O)[C@@H](N)CCSC)[C@@H](C)CC)C(C)C)C(=O)N[C@H](C(=O)N[C@@H](CC(C)C)C(=O)N[C@@H](CCC(N)=O)C(=O)NCC(=O)N[C@@H](CO)C(=O)N[C@@H](CCCNC(=N)N)C(=O)N[C@@H](CCCNC(=N)N)C(=O)N[C@@H](CCCNC(=N)N)C(=O)N[C@@H](CCC(N)=O)C(=O)NCC(=O)N[C@@H](CCCNC(=N)N)C(N)=O)[C@@H](C)O,"Kcnma1 (Mus musculus, UniProt Q08460)","ion current, blocker, inside-out patch clamp",Xenopus oocytes,"+140 mV, with: 10 µM cytosolic Ca2+",,Hill coefficient,1.22
O=C(c1ccc(Cl)cc1)N1CCN2C(=O)N(OC(=O)N3CCOc4ccccc43)C(=O)C2C1 (stereo not drawn),"Dipeptidyl peptidase 8 (Homo sapiens, UniProt Q6V1X1)","enzyme activity, inhibitor, MS-based ABPP",SW-620 in situ,"10 µM, 2 h, 37 °C","reference: compound over DMSO, lower = stronger inhibition",median ratio,1.1
CC(=O)C(c1ccccc1)c1ccccc1,"Bile acid receptor (NR1H4, Homo sapiens, UniProt Q96RI1)","coactivator recruitment, antagonist, TR-FRET",,"NG, with: 50 µM CDCA",,efficacy,< 30%
CCSc1nnc(C2CCCN(CC(=O)Nc3cc(C(F)(F)F)ccc3Cl)C2)n1CC (stereo not drawn),PFF0160c E182D,"enzyme activity, DCIP colorimetric",,,reference: E182D mutant over wild type,IC50 ratio,4
[2H]c1c([2H])c([C@]2([2H])CCCN2C(=O)C(C)(C)Oc2ccc3cn[nH]c3c2)c([2H])c([2H])c1C([2H])([2H])[2H],"Ribosomal protein S6 kinase alpha-5, C-terminal kinase domain (RPS6KA5, Homo sapiens, UniProt O75582)",KINOMEscan,,1 µM,reference: DMSO control,remaining binding,72%
COc1ccccc1N1CCN(Cc2c(NC(C)=O)sc(C)c2C)CC1,PFF0160c E182D,"enzyme activity, DCIP colorimetric",,,reference: E182D mutant over wild type,IC50 ratio,1.6
COc1ccc(Nc2nn3c(-c4ccccc4)ccnc3c2C(=O)Nc2ccc(Cl)cc2)cc1,α-amylase isoenzymes,"native PAGE densitometry, refers to: abnormal band",,1 mg/mL,,band share,50.5%
COc1ccccc1Cn1ccnc1SCC(=O)Nc1cc(C(F)(F)F)ccc1Cl,PFF0160c E182D,"enzyme activity, DCIP colorimetric",,,reference: E182D mutant over wild type,IC50 ratio,6.6
C=C(CN(C(=O)c1c(C(F)F)nn(C)c1F)C1CC1)c1ccc(Cl)cc1Cl,"SDHD/SDHC/SDHB (Sus scrofa, UniProt A5GZW8+D0VWV4+Q007T0)","enzyme activity, inhibitor, DCIP reduction",pig,"0.1 µM, with: DCIP 40 µM",,reaction velocity,0.0104 µM/s
Clc1cc2c(cc1Cl)Oc1cc(Cl)c(Cl)cc1O2,"Uncharacterized protein (Takifugu rubripes, UniProt Q4JHL2)","reporter gene, agonist, dual-luciferase",COS-7,24 h,reference: top over bottom,maximal fold induction,2.59 ± 0.13
COc1cc(Nc2ncc(F)c(Nc3ccc4c(n3)NC(=O)C(C)(C)O4)n2)cc(OC)c1OC,"DYRK2 (Homo sapiens, UniProt Q92630)",KINOMEscan,,10 µM,,inhibition,91%
Nc1nc2c(ncn2[C@@H]2O[C@H](COP(=O)(O)OP(=O)(O)O[C@H]3O[C@H](CCO)C(=O)[C@H](O)[C@@H]3O)[C@@H](O)[C@H]2O)c(=O)[nH]1,"CDP-sugar C4-reductase HS:53, Campylobacter jejuni",substrate,,"pH 7.5, 25 °C, no epimerase added, with: NADPH 300 µM",,Km,83 ± 30 µM
